# Measured values gathered from unrelated publications.
# Target: Amine oxidase [flavin-containing] B (MAOB, Homo sapiens, UniProt P27338)
# Chain of UniProt P27338 (whole entry, looked up): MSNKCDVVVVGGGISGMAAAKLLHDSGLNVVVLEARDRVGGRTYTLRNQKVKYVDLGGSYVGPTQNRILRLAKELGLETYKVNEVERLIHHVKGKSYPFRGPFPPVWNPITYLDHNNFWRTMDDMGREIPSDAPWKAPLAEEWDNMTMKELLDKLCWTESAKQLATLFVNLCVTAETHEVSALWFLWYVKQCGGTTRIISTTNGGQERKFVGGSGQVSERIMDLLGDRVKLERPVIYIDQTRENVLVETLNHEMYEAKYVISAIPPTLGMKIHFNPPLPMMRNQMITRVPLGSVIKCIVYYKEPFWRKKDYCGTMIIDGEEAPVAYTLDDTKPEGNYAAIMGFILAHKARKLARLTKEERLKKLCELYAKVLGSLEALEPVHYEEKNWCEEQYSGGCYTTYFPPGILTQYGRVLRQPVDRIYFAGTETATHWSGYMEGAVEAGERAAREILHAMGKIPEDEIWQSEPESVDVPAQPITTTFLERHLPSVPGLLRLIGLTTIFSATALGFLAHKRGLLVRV
# Mode: inhibitor
Structure (SMILES),assay,conditions,endpoint,value
Cc1ccc(C(=O)/C=C/c2ccc3c(c2)OCCO3)o1,"enzyme activity, fluorescence",1 µM,inhibition,47.8%
Cc1ccc(-c2nc(SCc3cn(CC(=O)NC(=O)Nc4ccccn4)nn3)nc(Nc3cccc(C(F)(F)F)c3)c2C#N)cc1,"enzyme activity, luciferase",100 µM,inhibition,< 5%
O=C1Nc2ccc(F)cc2/C1=N/N=C/c1cccc(OCc2ccccc2)c1,enzyme activity,10 µM,remaining activity,29.7%
C#CCSc1nc(Sc2nnnn2-c2ccccc2)c2nnn(Cc3ccccc3Cl)c2n1,"enzyme activity, luciferase",1 µM,inhibition,< 10%
O=C(/C=C/c1ccc2c(c1)OCO2)c1ccc(Br)s1,"enzyme activity, fluorescence",1 µM,inhibition,77.5%
O=C1Nc2ccc(Cl)cc2/C1=N/N=C/c1cccc(OCc2ccccc2)c1,enzyme activity,10 µM,remaining activity,40.6%
O=C(/C=C/c1ccc2c(c1)OCO2)c1cccs1,"enzyme activity, fluorescence",1 µM,inhibition,56.3%
O=C1Nc2ccc(Cl)cc2/C1=N/N=C/c1ccc(OCc2cccc(F)c2)cc1,enzyme activity,10 µM,remaining activity,63.6%
Cc1cc(O)c2c(c1)C(=O)c1cc(O)c(O)c(O)c1C2=O,Lineweaver-Burk secondary plot,uncompetitive component,Kiu,4.46 µM

# Repeated from above:
Structure (SMILES),assay,conditions,endpoint,value
O=C(/C=C/c1ccc2c(c1)OCO2)c1cccs1,"enzyme activity, fluorescence",1 µM,inhibition,56.3%
